Published values collected from several papers.
Parts stem from different laboratories: compare values within a part only.

Set 1 — technique: protein binding microarray; form: double-stranded DNA, one strand shown; matrix: in vitro; tested at: not given; reference: not given; reading: higher = stronger binding
Target: Histone acetyltransferase KAT6A, both winged helices, GST fusion (KAT6A, Homo sapiens, UniProt Q92794, residues 1-181)
Notes: 8-mer, flanks averaged, mean of 2 arrays, mostly near background
Residues (chain): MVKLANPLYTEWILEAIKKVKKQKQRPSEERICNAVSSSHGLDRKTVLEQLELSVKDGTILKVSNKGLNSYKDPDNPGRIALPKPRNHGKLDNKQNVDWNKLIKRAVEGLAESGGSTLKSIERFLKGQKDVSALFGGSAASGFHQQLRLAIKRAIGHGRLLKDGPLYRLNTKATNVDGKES
Sequence | E-score
CTGCGCCC | 0.0731
AAGTGTGT | -0.127
ACATGTCT | 0.0374
CAAGTTGC | 0.0428
GGCATACA | 0.0202
ACTGTTCG | -0.00162
CACTCCAA | -0.144
CGCTAGTA | 0.185
GTCGCTGA | 0.0379
AAAAGTAT | -0.00203
ATTAGTCA | -0.0461
ATCGATCG | -0.0542
CCGCCCCA | -0.0343
GCGTAGCA | 0.136
ACTGTACC | 0.00458
ACATAGTC | 0.0306
ACTGCAGT | -0.0969
ACTAGCAG | -0.231
AGCCGTTC | 0.165
ATTGTTTG | 0.00464
ACTGCGCC | 0.219
ACTGCAAA | -0.169
AAATAATG | -0.0769

Set 2 — technique: RNAcompete; form: RNA; matrix: in vitro; tested at: 20 nM; notes: 7-mer, probes averaged, single round; reference: mean of 7-mers; reading: higher = stronger binding
Target: PABPC1L2, full length, GST fusion (mouse, UniProt A0ABA7IW68)
Target sequence (chain): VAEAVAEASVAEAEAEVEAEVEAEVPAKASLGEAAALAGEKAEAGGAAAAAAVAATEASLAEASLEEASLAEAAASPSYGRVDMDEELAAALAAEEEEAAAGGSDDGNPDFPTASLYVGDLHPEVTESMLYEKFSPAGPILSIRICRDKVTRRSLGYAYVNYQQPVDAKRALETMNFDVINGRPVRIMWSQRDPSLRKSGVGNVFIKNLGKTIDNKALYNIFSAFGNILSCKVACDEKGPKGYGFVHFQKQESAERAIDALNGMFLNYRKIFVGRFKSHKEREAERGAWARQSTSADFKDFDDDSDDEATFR
Sequence | 7-mer Z-score
GACCGCA | -0.0935
CCAUUCG | -0.211
GUGGAGA | 0.0968
UCCUACG | -0.213
GUAUCCG | -0.264
AGGACAG | 0.225
UCCUUGC | -0.316
CACUUCG | -0.36
AGAAAGU | 1.17
CUUUACC | -0.267
UGAGAGG | 0.0424
AUAGCCG | -0.175
CCGGCGG | -0.204
CUCCGAG | -0.199
CCCAACC | -0.364
GCCUUAG | -0.336
ACGCGUA | -0.05
CCCUAAU | -0.258
UGUAAUC | -0.195
UACUCUU | -0.478
GAUUUUC | -0.387
CCGUGUA | -0.26
UUUAACU | -0.277
ACUUCCG | -0.249
GCCCAGC | -0.362

Set 3 — technique: protein-binding microarray; form: double-stranded DNA, one strand shown; matrix: in vitro; tested at: 250 nM; notes: 60-bp whole probe; added: salmon DNA 0.4 mg/ml; reference: random background probes; reading: higher = stronger binding; constant ends, left off below: GCCTAGCAC … GTCTTGATTCGCTTGACGCTGCTG
Target: Interferon regulatory factor 5, full length, phosphomimetic (IRF5, Homo sapiens, UniProt Q13568-2, residues 1-514, K96S/S451D/S453D/S456D/S462D)
Sequence | log fluorescence
TTAGGTTTGGACTATCGGTTAGTGCTA | 5.13 z-score
TCATATATATTATATATTACTGTGCTA | 0.965 z-score
TTAGATTTCAGTATGGATTAGTGCTAG | 2.09 z-score
GACGGTATCCTACTCCTGACGTGCTAG | -0.0674 z-score
GACGATTTCAGTTTCGACACGTGCTAG | 7.99 z-score
GACGGTCTCCTTTTCCTGGCGTGCTAG | 0.114 z-score
TCATTGTTGTTTTTTGGACTGTGCTAG | 0.707 z-score
TTAGGTTTTGGGACTGGGTTAGTGCTA | 0.397 z-score
GACGGACTGCTTCTCCTGAAGTGCTAG | -0.638 z-score
GACGATATCGGGACTGGGGACGTGCTA | 0.96 z-score
TTAGGTATCGGGACTGGGCTAGTGCTA | 1.53 z-score
TCATCTCCCATTCTGAAACTGTGCTAG | 0.432 z-score
GACGAACTGGGGACTGGAAACGTGCTA | -0.44 z-score
TATGTTTTTCATTTTGTTCAGTGCTAG | 1.99 z-score
TCCATTTTCTAAATGCCCTAGTGCTAG | 0.937 z-score
GACGGTATCGGGTTTCTGGACGTGCTA | 2.55 z-score
TTAGATTCCAGATTCGATTAGTGCTAG | 1.11 z-score
GACGGTTTCGACTTTCGGGACGTGCTA | 7.78 z-score
CTGCTTGAAACTCTTACCCCGTGCTAG | -0.19 z-score

Set 4 — technique: RNA Bind-n-Seq; form: RNA; matrix: in vitro; tested at: 200 nM; notes: whole 134-nt RNA, ends assumed; added: 150 mM LiCl; reference: input library; reading: higher = stronger binding; all molecules: 7-deaza-guanosine replaces G
Target: Ras GTPase-activating protein-binding protein 1, full length (G3BP1, Homo sapiens, UniProt Q13283)
UniProt Q13283, sequence (whole entry, looked up): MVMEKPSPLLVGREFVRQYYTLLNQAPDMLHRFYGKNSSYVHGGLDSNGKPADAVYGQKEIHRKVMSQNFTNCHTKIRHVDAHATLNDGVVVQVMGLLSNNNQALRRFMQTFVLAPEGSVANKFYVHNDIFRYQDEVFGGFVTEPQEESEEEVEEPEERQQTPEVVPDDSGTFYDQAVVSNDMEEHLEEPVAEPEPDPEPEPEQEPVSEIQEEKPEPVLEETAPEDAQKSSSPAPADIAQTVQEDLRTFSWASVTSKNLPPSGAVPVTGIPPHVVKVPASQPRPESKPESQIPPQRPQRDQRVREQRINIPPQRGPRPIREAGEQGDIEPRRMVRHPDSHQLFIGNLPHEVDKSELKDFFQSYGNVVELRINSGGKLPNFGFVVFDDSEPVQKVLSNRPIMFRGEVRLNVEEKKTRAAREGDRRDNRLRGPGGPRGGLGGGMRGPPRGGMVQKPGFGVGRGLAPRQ
Constant ends, left off below: GGGAGUUCUACAGUCCGACGAUC … UGGAAUUCUCGGGUGUCAAGG
Sequence | log2 enrichment
UGGACCUGGUGGCAUGCGGGGAGGAAGAGGUGGCCUCAUGGAUCGUGGUGGUCCCGGUGGAAUGUUCAGAGGUGGCCGUGGUGGAGACAG | 0.305
UCCUGUGCUACACAUCGUAUGUACCGAAUCGGGGUUUUUGGGGAAAGGGGAAAAAGGGGAAAGUAUUAUGUUACGCCGUUCGGAUCUGCA | 0.141
AAGUCCUGUGCUACACAUCGUAUGUACCGAAUCGGGGCCCCGGGCCCCGGCCCCGGGAAAGUAUUAUGUUACGCCGUUCGGAUCUGCACU | -1.92
CUCAAGUCCUGUGCUACACAUCGUAUGUACCGAAUCGGAGGAAAGGUUUUUGGAAAGUAUUAUGUUACGCCGUUCGGAUCUGCACUUCCA | -0.497
CCUCAAGUCCUGUGCUACACAUCGUAUGUACCGAAUCGGGUGGGGUGGUGGGAAAGUAUUAUGUUACGCCGUUCGGAUCUGCACUUCCAG | 0.153
GUCCUGUGCUACACAUCGUAUGUACCGAAUCGGGGUUUGGGGAGGGGAAAAAAAGGGGAAAGUAUUAUGUUACGCCGUUCGGAUCUGCAC | 0.0811
UUCCAACAGUUAUGGGAUCCCAGAACCUGCUCAUGCAUACGCUCAACCUCAGACCACAACUCCUCUACCUGCAGUUUCCGGUUCUCCUGG | 1.33
UGGCCCUGGUGGCAUGCGGGGAGGAAGAGGUGGCCUCAUGGAUCGUGGUGGUCCCGGUGGAAUGUGCAGAGGUGGCCGUGGUGGAGACAG | -0.0606

Excerpt of the above (set 1):
Sequence | E-score
CGCTAGTA | 0.185
CAAGTTGC | 0.0428
GTCGCTGA | 0.0379
ACTGCGCC | 0.219
AGCCGTTC | 0.165
